Results from different studies.
Compare with care: the assays were run in different laboratories. Numbers after ± are the reported error.

CC[C@H](C)[C@H](NC(=O)[C@H](N)Cc1ccc(O)cc1)C(=O)N[C@H]1CSSC[C@@H](C(=O)N(C)[C@H](C(N)=O)[C@@H](C)CC)NC(=O)[C@H](CCCNC(=N)N)NC(=O)[C@H](Cc2c[nH]cn2)NC(=O)[C@H](C)NC(=O)CN(C)C(=O)[C@H](Cc2c[nH]c3ccccc23)NC(=O)[C@H](CC(=O)O)NC(=O)[C@H](CCC(N)=O)NC(=O)[C@H](Cc2cn(C)c3ccccc23)NC(=O)[C@H](C(C)C)NC1=O  recovery (UPLC-ESI-MS; cynomolgus monkey plasma; 0.36 µg/mL, 24 h, 4 °C, autosampler after SPE): 98.7 ± 0.1%
CC(C)C[C@H](NC(=O)[C@H](CC(C)C)NC(=O)[C@@H](Cc1c[nH]c2ccccc12)NC(=O)[C@@H](NC(=O)[C@@H](Cc1csc2ccccc12)NC(=O)[C@@H](N)CCCCN)[C@@H](c1ccccc1)c1c[nH]c2ccccc12)C(N)=O  HPLC retention (RP-HPLC Kinetex Biphenyl; acetonitrile/water TFA gradient): 51 %B
CC/C=C\C/C=C\C/C=C\C/C=C\C/C=C\CCCCOC(CC)C(=O)O (stereo not drawn)  tissue concentration (radioactivity, 14C-labelled; Wistar rat, male, kidney cortex; oral, 100 mg/kg, 3 days): 1.5 µg equivalents/g tissue
CC(=O)Nc1ncc(CN2CC[C@H](Oc3cccc([18F])n3)C[C@@H]2C)s1  fraction unbound (ultrafiltration; rhesus monkey, plasma): 6.7%
Clc1ccc2c(c1)nc(N1CC3CNCC3C1)n2Cc1ccccc1 (stereo not drawn)  compound remaining (metabolic stability; mouse, liver microsomes; 0.1 µM, 30 min, pH 7.4): 85.9%
CCCC[C@H](NC(=O)CNC(=O)CNC(=O)CN1CCN(CC(=O)O)CCN(CC(=O)O)CCN(CC(=O)O)CC1)C(=O)N[C@H]1CC(=O)NCCCC[C@@H](C(N)=O)NC(=O)[C@H](Cc2c[nH]c3ccccc23)NC(=O)[C@H](CCCNC(=N)N)NC(=O)[C@@H](Cc2ccccc2)NC(=O)[C@H](Cc2c[nH]cn2)NC1=O [copper-64 labelled]  uptake ratio (female C57 mouse, B16/F1 melanoma; intravenous, 0.037 MBq, 4 h; relative to: tumour over kidneys): 0.7
CC(C)C[C@@H](NC(=O)[C@H](NC(=O)[C@H]1CCCN1)[C@H](C)O)C(=O)N[C@H](Cc1c[nH]cn1)C(=O)N[C@@H](C(=O)N[C@H](Cc1c[nH]cn1)C(=O)N[C@H](CC(N)=O)C(=O)N[C@H](CCCNC(=N)N)C(=O)N[C@H](CCCNC(=N)N)C(=O)N[C@H](CCCNC(=N)N)C(=O)N[C@H](CCCNC(=N)N)C(=O)N[C@H](CCCNC(=N)N)C(N)=O)[C@H](C)O  total clearance (Beagle dog, plasma; intravenous, 3 mg/kg, single dose): 1.16 mL/min/kg
NC[C@@H](C(=O)Nc1ccc(-c2cn[nH]c2)cc1)c1ccccc1  ocular irritation score (OECD 405, refers to: Cornea; New Zealand White rabbit; topical, 0.1 %, 72 h, day 4; direction not given): 0
N=C(N)NCCC[C@@H]1NC(=O)[C@H](Cc2c[nH]c3ccccc23)NC(=O)[C@@H](CC2CCCCC2)NC(=O)[C@@H]2CCCN2C(=O)[C@@H](NC(=O)CCc2ccccc2)CCCNC1=O  alpha rate constant (two-compartment model; C57BL/6J mice, brain; intraperitoneal, 1 mg/kg): 3.45 h⁻¹
OC(CN1CCC2(CC1)CC(O)c1ccc3ccccc3c1O2)c1ccc(F)c(F)c1 (stereo not drawn)  compound remaining (metabolic stability; mouse, liver microsomes; 1 h): 16%
CC(C)c1cnc(-c2cc(Cl)ccc2F)cc1Nc1ccncc1C(=O)NC(CO)CO  patients with related SAE (refers to: pyrexia; human patients; oral, dose not given, grade 1): 0%
C[C@H](CN(C)Cc1ccccc1)NC(=O)c1ccc(-c2noc(C(F)(F)[18F])n2)cc1  brain-to-muscle ratio (PET; Sprague-Dawley rat, female, brain and muscle; intravenous, 10 min; relative to: brain SUV over muscle SUV): 4.01 ± 0.31
NS(=O)(=O)c1ccc(N2N=C(C(F)(F)F)CC2c2ccc(F)cc2F)cc1 (stereo not drawn)  plasma concentration (Beagle dog, male, arthritis model, plasma; oral, 4 mg/kg, second dose day 12, day 14): 658 ± 496 ng/mL
C=C(c1ccc(C(=O)O)c(F)c1)c1cc2c(cc1C)C(C)(C)C=CC2(C)C  HDL level (Sprague-Dawley rat, male, plasma; oral, 100 mg/kg, 12 h, sesame oil vehicle): 39 ± 3.2 mg/dL
C[C@H](Oc1cc(-c2cnn(C3CCN(CC[18F])CC3)c2)cnc1N)c1c(Cl)ccc(F)c1Cl  tracer uptake (PET imaging; nude mouse, kidney; iv, 30 min post injection): 3.2 ± 0.9 %ID/cc

Repeated from above:
CC/C=C\C/C=C\C/C=C\C/C=C\C/C=C\CCCCOC(CC)C(=O)O (stereo not drawn)  tissue concentration (radioactivity, 14C-labelled; Wistar rat, male, kidney cortex; oral, 100 mg/kg, 3 days): 1.5 µg equivalents/g tissue
